# Experimental data gathered from unrelated publications.
# ± marks the error that the study gave.
# STING1 H232R: Stimulator of interferon genes protein (STING1, Homo sapiens, UniProt Q86WV6, H232R)
# MAPK8: Mitogen-activated protein kinase 8 (MAPK8, Homo sapiens, UniProt P45983)
Structure (SMILES),target or system,test,test system,setting,how to read,endpoint,result
O=C(NCCCCOP(=O)(O)OP(=O)(O)OP(=O)(O)O)OCC1c2ccccc2-c2ccccc21,"DNA polymerase beta (POLB, Homo sapiens, UniProt P06746)",substrate,,"undamaged template, G",relative to: dCTP over compound,efficiency relative to dCTP,60 fold
CC(C)C[C@@H]1NC(=O)[C@H](Cc2ccccc2)NC(=O)CSC[C@@H](C(=O)NCC(N)=O)NC(=O)[C@H](Cc2ccc(O)cc2)NC(=O)[C@H](C(C)C)NC(=O)[C@H](Cc2ccccc2)NC(=O)[C@H](Cc2ccc(O)cc2)NC(=O)[C@H](Cc2ccccc2)NC(=O)[C@H](CC(=O)O)NC(=O)[C@H](CC(N)=O)NC(=O)[C@H](CC(N)=O)NC(=O)[C@H](Cc2ccc(O)cc2)NC(=O)[C@H](C(C)C)NC(=O)[C@H](Cc2ccccc2)NC1=O,STING1 H232R,"thermal stability, DSF",,100 µM,,ΔTm,0.2 °C
Nc1nc(-c2ccc(OC(F)(F)F)cc2)nc2[nH]nc(Nc3ccccc3)c12,HeLa Ohio,,,72 h,,CC50,> 518 µM
C[C@@H]1C[C@H](Nc2ccccc2)c2cc(F)ccc2N1C(=O)c1ccc(Cl)cc1,"Ecdysone receptor (Aedes albopictus, UniProt Q9U3Y4)","ligand binding, inhibitor",intact cells,with: [3H]ponasterone A,direction not given,pIC50 Z-score,0.49
COc1ccccc1-c1ccncc1C(=O)Nc1nnc(OCc2ccc(Cl)cc2)s1,"Bifunctional 3'-5' exonuclease/ATP-dependent helicase WRN, residues 500-946 (WRN, Homo sapiens, UniProt Q14191)","ATPase activity, ADP-Glo",,3.8 µM,relative to: 0 µM cpd,remaining activity,80%
CCCCCC(O)/C=C/C=O (centres unmarked),"Plexin-B2 (PLXNB2, Homo sapiens, UniProt O15031)","IA-probe cysteine labelling, covalent modifier, competitive isoTOP-ABPP",Ramos proteome,"100 µM, in vitro","relative to: DMSO over compound, higher = stronger blockade",isoTOP-ABPP ratio,15
O=C(N[C@@H](CCCCNC(=O)c1ccc([N+](=O)[O-])o1)c1nc2ccccc2[nH]1)c1ccc(-n2ccnc2)cc1,STING1 H232R,"reporter gene, inhibitor",THP1-Dual KI-hSTING-R232,"24 h, 1 h preincubation, with: diABZI 500 nM",,EC50,22.1 µM
Cc1cn(CC(=O)N(CC(=O)N[C@H]2CCC[C@@H]2N(CC(=O)N[C@H]2COC[C@@H]2N(CC(=O)N[C@H]2COC[C@@H]2N(CC(=O)N[C@H]2COC[C@@H]2N(CC(=O)NCCOCCOCC(N)=O)C(=O)Cn2cnc3c(N)ncnc32)C(=O)Cn2cc(C)c(=O)[nH]c2=O)C(=O)Cn2cnc3c(N)ncnc32)C(=O)Cn2cnc3c(=O)[nH]c(N)nc32)[C@H]2CCC[C@@H]2NC(=O)CN(C(=O)Cn2cnc3c(=O)[nH]c(N)nc32)[C@H]2CCC[C@@H]2NC(=O)CN(C(=O)Cn2cc(C)c(=O)[nH]c2=O)[C@H]2COC[C@@H]2NC(=O)CN(C(=O)Cn2cnc3c(N)ncnc32)[C@H]2COC[C@@H]2NC(=O)CN(C(=O)Cn2cnc3c(=O)[nH]c(N)nc32)[C@H]2COC[C@@H]2N)c(=O)[nH]c1=O,complementary RNA,"duplex formation, UV melting curve fit",PBS,1 µM,,ΔH,-70.7 ± 2 kcal/mol
COC1CN([C@H]2CC[C@H]([C@@]3(C)Oc4c(Cl)cc(C(=O)NCc5c(SC)cc(C)[nH]c5=O)c(C)c4O3)CC2)C1,,"RNA-seq, item: CBS","human, whole blood","dose not given, 24 h",relative to: pretreatment baseline,log2 fold change,1.06
Cn1cc(-c2cc(N3CCCCS3(=O)=O)ccc2N[C@H]2CC[C@H](C)CC2)c2cc[nH]c2c1=O (stereo in doubt),"Bromodomain-containing protein 3, BD1 (BRD3, Homo sapiens, UniProt Q15059)","binding, competition with immobilised ligand",,1 µM,,remaining binding,0.75%
Cc1cc(=O)oc2cc(NC(=O)CCCCCCC(=O)NO)ccc12,"HDAC8 (Homo sapiens, UniProt Q9BY41)",ITC,Tris-HCl buffer,283 K,,TΔS°,4.26 kcal/mol
Cc1ncsc1-c1ccc(C(C)NC(=O)C2CC(O)CN2C(=O)C(NC(=O)CCCCCCCCCCN2CCCC(Nc3ncc(Cl)c(Nc4ccccc4S(=O)(=O)C(C)C)n3)C2)C(C)(C)C)cc1 (centres unmarked),22Rv1,"RNA-seq, item: RILPL1 mRNA",,concentration not given,relative to: DMSO,log2 fold change,-1.15
COC(=O)[C@@]1(C)C=C(C(=O)OC(C)(C)C)C(=O)CC1,MAPK8,"D-peptide binding, inhibitor, FP peptide displacement",,125 µM,lower is stronger displacement,fraction bound,0.509
CCCCCCCC/C=C\CCCCCCCC(=O)NCCO,"Trpv1 (Mus musculus, UniProt Q704Y3, S511T)","ion current, agonist, whole-cell patch clamp",,S511T,relative to: 3 mM 2-APB,maximal open probability,0.77 ± 0.17
CCCn1ccc2c(N3CCN(CCCCOc4ccc5c(c4)NC(=O)CC5)CC3)cccc21,"D(2) dopamine receptor, long isoform (DRD2, Homo sapiens, UniProt P14416)","β-arrestin2 recruitment, agonist, Tango",human cells,,,log(τ/KA),6.7 ± 0.05
CCC1(CC)C(=O)N(c2cccc(CCC(=O)O)c2)C1=O.O=C(O)C(F)(F)F,"Dipeptidyl peptidase 8 (Homo sapiens, UniProt Q6V1X1)","enzyme activity, inhibitor",,5 µM,,activity vs control,20%
Nc1ccn([C@@H]2O[C@H](COP(=O)(O)OP(=O)(O)OP(=O)(O)O)[C@@H](O)[C@H]2O)c(=O)n1,"Genome polyprotein, NS5B (Hepatitis C virus genotype 1b, UniProt Q9WMX2)","nucleotide incorporation, substrate",,,,Vmax,0.72 fraction per time
CN1CCCNC(=O)c2cccc(c2)C(=O)NCCCN(C)CCCNc2cccc3c2C(=O)c2cccc(c2C3=O)NCCC1,SAS,"RNA-Seq, item: SRGAP3 mRNA",,"1 µM, 6 h",relative to: untreated cells,log2 fold change,3.71
COC(=O)[C@@]1(Cc2ccccc2)C=C(C(=O)OC(C)(C)C)C(=O)CC1,MAPK8,"D-peptide binding, inhibitor, FP peptide displacement",,500 µM,lower is stronger displacement,fraction bound,-0.0933
O=C(N[C@@H](CCNC(=O)c1ccc([N+](=O)[O-])o1)c1nc2ccccc2[nH]1)c1ccc(-n2cnnc2)cc1,STING1 H232R,"reporter gene, inhibitor",THP1-Dual KI-hSTING-R232,"24 h, 1 h preincubation, with: diABZI 500 nM",,EC50,> 40 µM

# Repeated from above:
Structure (SMILES),target or system,test,test system,setting,how to read,endpoint,result
Cc1cn(CC(=O)N(CC(=O)N[C@H]2CCC[C@@H]2N(CC(=O)N[C@H]2COC[C@@H]2N(CC(=O)N[C@H]2COC[C@@H]2N(CC(=O)N[C@H]2COC[C@@H]2N(CC(=O)NCCOCCOCC(N)=O)C(=O)Cn2cnc3c(N)ncnc32)C(=O)Cn2cc(C)c(=O)[nH]c2=O)C(=O)Cn2cnc3c(N)ncnc32)C(=O)Cn2cnc3c(=O)[nH]c(N)nc32)[C@H]2CCC[C@@H]2NC(=O)CN(C(=O)Cn2cnc3c(=O)[nH]c(N)nc32)[C@H]2CCC[C@@H]2NC(=O)CN(C(=O)Cn2cc(C)c(=O)[nH]c2=O)[C@H]2COC[C@@H]2NC(=O)CN(C(=O)Cn2cnc3c(N)ncnc32)[C@H]2COC[C@@H]2NC(=O)CN(C(=O)Cn2cnc3c(=O)[nH]c(N)nc32)[C@H]2COC[C@@H]2N)c(=O)[nH]c1=O,complementary RNA,"duplex formation, UV melting curve fit",PBS,1 µM,,ΔH,-70.7 ± 2 kcal/mol
COC1CN([C@H]2CC[C@H]([C@@]3(C)Oc4c(Cl)cc(C(=O)NCc5c(SC)cc(C)[nH]c5=O)c(C)c4O3)CC2)C1,,"RNA-seq, item: CBS","human, whole blood","dose not given, 24 h",relative to: pretreatment baseline,log2 fold change,1.06
Cn1cc(-c2cc(N3CCCCS3(=O)=O)ccc2N[C@H]2CC[C@H](C)CC2)c2cc[nH]c2c1=O (stereo in doubt),"Bromodomain-containing protein 3, BD1 (BRD3, Homo sapiens, UniProt Q15059)","binding, competition with immobilised ligand",,1 µM,,remaining binding,0.75%
